Measured values gathered from unrelated publications.
Lines come from different studies, so protocols differ. ± marks the error that the study gave.
Method: steady-state kinetics
B1: Msh2/Msh3 (Saccharomyces cerevisiae); chain 1 MSSTRPELKFSDVSEERNFYKKYTGLPKKPLKTIRLVDKGDYYTVIGSDAIFVADSVYHTQSVLKNCQLDPVTAKNFHEPTKYVTVSLQVLATLLKLCLLDLGYKVEIYDKGWKLIKSASPGNIEQVNELMNMNIDSSIIIASLKVQWNSQDGNCIIGVAFIDTTAYKVGMLDIVDNEVYSNLESFLIQLGVKECLVQDLTSNSNSNAEMQKVINVIDRCGCVVTLLKNSEFSEKDVELDLTKLLGDDLALSLPQKYSKLSMGACNALIGYLQLLSEQDQVGKYELVEHKLKEFMKLDASAIKALNLFPQGPQNPFGSNNLAVSGFTSAGNSGKVTSLFQLLNHCKTNAGVRLLNEWLKQPLTNIDEINKRHDLVDYLIDQIELRQMLTSEYLPMIPDIRRLTKKLNKRGNLEDVLKIYQFSKRIPEIVQVFTSFLEDDSPTEPVNELVRSVWLAPLSHHVEPLSKFEEMVETTVDLDAYEENNEFMIKVEFNEELGKIRSKLDTLRDEIHSIHLDSAEDLGFDPDKKLKLENHHLHGWCMRLTRNDAKELRKHKKYIELSTVKAGIFFSTKQLKSIANETNILQKEYDKQQSALVREIINITLTYTPVFEKLSLVLAHLDVIASFAHTSSYAPIPYIRPKLHPMDSERRTHLISSRHPVLEMQDDISFISNDVTLESGKGDFLIITGPNMGGKSTYIRQVGVISLMAQIGCFVPCEEAEIAIVDAILCRVGAGDSQLKGVSTFMVEILETASILKNASKNSLIIVDELGRGTSTYDGFGLAWAIAEHIASKIGCFALFATHFHELTELSEKLPNVKNMHVVAHIEKNLKEQKHDDEDITLLYKVEPGISDQSFGIHVAEVVQFPEKIVKMAKRKANELDDLKTNNEDLKKAKLSLQEVNEGNIRLKALLKEWIRKVKEEGLHDPSKITEEASQHKIQELLRAIANEPEKENDNYLKYIKALLL; chain 2 MAGQPTISRFFKKAVKSELTHKQEQEVAVGNGAGSESICLDTDEEDNLSSVASTTVTNDSFPLKGSVSSKNSKNSEKTSGTSTTFNDIDFAKKLDRIMKRRSDENVEAEDDEEEGEEDFVKKKARKSPTAKLTPLDKQVKDLKMHHRDKVLVIRVGYKYKCFAEDAVTVSRILHIKLVPGKLTIDESNPQDCNHRQFAYCSFPDVRLNVHLERLVHHNLKVAVVEQAETSAIKKHDPGASKSSVFERKISNVFTKATFGVNSTFVLRGKRILGDTNSIWALSRDVHQGKVAKYSLISVNLNNGEVVYDEFEEPNLADEKLQIRIKYLQPIEVLVNTDDLPLHVAKFFKDISCPLIHKQEYDLEDHVVQAIKVMNEKIQLSPSLIRLVSKLYSHMVEYNNEQVMLIPSIYSPFASKIHMLLDPNSLQSLDIFTHDGGKGSLFWLLDHTRTSFGLRMLREWILKPLVDVHQIEERLDAIECITSEINNSIFFESLNQMLNHTPDLLRTLNRIMYGTTSRKEVYFYLKQITSFVDHFKMHQSYLSEHFKSSDGRIGKQSPLLFRLFSELNELLSTTQLPHFLTMINVSAVMEKNSDKQVMDFFNLNNYDCSEGIIKIQRESESVRSQLKEELAEIRKYLKRPYLNFRDEVDYLIEVKNSQIKDLPDDWIKVNNTKMVSRFTTPRTQKLTQKLEYYKDLLIRESELQYKEFLNKITAEYTELRKITLNLAQYDCILSLAATSCNVNYVRPTFVNGQQAIIAKNARNPIIESLDVHYVPNDIMMSPENGKINIITGPNMGGKSSYIRQVALLTIMAQIGSFVPAEEIRLSIFENVLTRIGAHDDIINGDSTFKVEMLDILHILKNCNKRSLLLLDEVGRGTGTHDGIAISYALIKYFSELSDCPLILFTTHFPMLGEIKSPLIRNYHMDYVEEQKTGEDWMSVIFLYKLKKGLTYNSYGMNVAKLARLDKDIINRAFSISEELRKESINEDALKLFSSLKRILKSDNITATDKLAKLLSLDIH
B2: enzyme A178R/D177A/M179S/P184R (Levilactobacillus brevis, UniProt Q03Q85); chain MKVTVVGCTHAGTFAIKQILAEHPDAEVTVYERNDVISFLSCGIALYLGGKVADPQGLFYSSPEELQKLGANVQMNHNVLAIDPDQKTVTVEDLTNHAQTTESYDKLVMTSGSWPIVPKIPGIDSDRVKLCKNWAHAQALIEDAKEAKRITVIGAGYIGAELAEAYSTTGHDVTLIARSARVMRKYFDADFTDVIEQDYRDHGVQLALGETVESFTDSATGLTIKTDKNSYETDLAILCIGFRPNTDLLKGKVDMAPNGAIITDDYMRSSNPDIFAAGDSAAVHYNPTHQNAYIPLATNAVRQGILVGKNLVKPTVKYMGTQSSSGLALYDRTIVSTGLTLAAAKQQGLNAEQVIVEDNYRPEFMPSTEPVLMSLVFDPDTHRILGGALMSKYDVSQSANTLSVCIQNENTIDDLAMVDMLFQPNFDRPFNYLNILAQAAQAKVAQSVNA
B3: carbamoyl phosphate synthetase large subunit L648E (Escherichia coli, UniProt P00968); chain PKRTDIKSILILGAGPIVIGQACEFDYSGAQACKALREEGYRVILVNSNPATIMTDPEMADATYIEPIHWEVVRKIIEKERPDAVLPTMGGQTALNCALELERQGVLEEFGVTMIGATADAIDKAEDRRRFDVAMKKIGLETARSGIAHTMEEALAVAADVGFPCIIRPSFTMGGSGGGIAYNREEFEEICARGLDLSPTKELLIDESLIGWKEYEMEVVRDKNDNCIIVCSIENFDAMGIHTGDSITVAPAQTLTDKEYQIMRNASMAVLREIGVETGGSNVQFAVNPKNGRLIVIEMNPRVSRSSALASKATGFPIAKVAAKLAVGYTLDELMNDITGGRTPASFEPSIDYVVTKIPRFNFEKFAGANDRLTTQMKSVGEVMAIGRTQQESLQKALRGLEVGATGFDPKVSLDDPEALTKIRRELKDAGADRIWYIADAFRAGLSVDGVFNLTNIDRWFLVQIEELVRLEEKVAEVGITGLNADFLRQLKRKGFADARLAKLAGVREAEIRKLRDQYDLHPVYKRVDTCAAEFATDTAYMYSTYEEECEANPSTDREKIMVLGGGPNRIGQGIEFDYCCVHASLALREDGYETIMVNCNPETVSTDYDTSDRLYFEPVTLEDVLEIVRIEKPKGVIVQYGGQTPEKLARALEAAGVPVIGTSPDAIDRAEDRERFQHAVERLKLKQPANATVTAIEMAVEKAKEIGYPLVVRPSYVLGGRAMEIVYDEADLRRYFQTAVSVSNDAPVLLDHFLDDAVEVDVDAICDGEMVLIGGIMEHIEQAGVHSGDSACSLPAYTLSQEIQDVMRQQVQKLAFELQVRGLMNVQFAVKNNEVYLIEVNPRAARTVPFVSKATGVPLAKVAARVMAGKSLAEQGVTKEVIPPYYSVKEVVLPFNKFPGVDPLLGPEMRSTGEVMGVGRTFAEAFAKAQLGSNSTMKKHGRALLSVREGDKERVVDLAAKLLKQGFELDATHGTAIVLGEAGINPRLVNKVHEGRPHIQDRIKNGEYTYIINTTSGRRAIEDSRVIRRSALQYKVHYDTTLNGGFATAMALNADATEKVISVQEMHAQIK
B4: enzyme (Acinetobacter baumannii, UniProt D0CBC8); chain MALVLDGRALAKQIEENLLVRVEALKAKTGRTPILATILVGDDGASATYVRMKGNACRRVGMDSLKIELPQETTTEQLLAEIEKLNANPDVHGILLQHPVPAQIDERACFDAISLAKDVDGVTCLGFGRMAMGEAAYGSATPAGIMTILKENNIEIAGKHAVVVGRSAILGKPMAMMLLQANATVTICHSRTQNLPELVKQADIIVGAVGKAELIQKDWIKQGAVVVDAGFHPRDGGGVGDIQLQGIEEIASAYTPVPGGVGPMTITTLIRQTVEAAEKALG
B5: putA D779W (Bradyrhizobium diazoefficiens, UniProt Q89E26); chain MPNIPPPFTAPYAPDDAEIAARLLPASHLSPPQEARIHRTATRLIEAIRKRDDRLGGVEDMLREFALSTKEGLALMVLAEALLRVPDARTADQFIEDKLGEGDFIHHETKSTAFLVNASAWALGLSARVIQPGETPDGTIGRLVKRLGAPAVRTATRQAMRLMGNHFVLGETIEQALERGKPRSGQKTRYSFDMLGEGARTAADARRYFDAYASAIETIGKAAGNHALPDRPGISVKLSALHPRFEAISRARVMVELVPQLLDLAQRAKAHDLNFTVDAEEADRLELSLDVIAATLADPSLKGWDGFGLAIQAYQKRASAVIDYVDALARAHDRKLMVRLVKGAYWDTEIKRAQERGLDGYPVFTRKAMTDLNYVACASKLLALRPRIFPQFATHNALTVATVLEMAEGSSGFEFQRLHGMGEALYEQLAKDHADIAYRTYAPVGSHRDLLAYLVRRLLENGANSSFVAQAADYRVPVPALLQRPADAIVRPQAAAHPRIPLPCDLFAPERRNSRGVEFGARTALDQLLTDVKAETGDLKPIADATPDQAHAAVAAARAGFAGWSRTPAGIRAAALEQAAHLLESRSAHFIALLQREGGKTLDDALSELREAADFCRYYAAQGRKLFGSETAMPGPTGESNALTMRGRGVFVAISPWNFPLAIFLGQVTAALMAGNSVVAKPAEQTPRIAREAVALLHEAGIPKSALYLVTGDGRIGAALTAHPDIAGVVFTGSTEVARSINRALAAKDGPIVPLIAETGGINAMIADATALPEQVADWVVTSAFRSAGQRCSALRLLFVQEDVADRMIEMVAGAARELKIGDPSDVATHVGPVIDVEAKQRLDAHIARMKTEARLHFAGPAPEGCFVAPHIFELTEAGQLTEEVFGPILHVVRYRPENLERVLRAIERTGYGLTLGVHSRIDDSIEAIIDRVQVGNIYVNRNMIGAVVGVQPFGGNGLSGTGPKAGGPHYLARFATEQTVTINTAAAGGNAALLAGEE
B6: UGT1A9 (Homo sapiens, UniProt O60656); chain GKLLVVPMDGSHWFTMRSVVEKLILRGHEVVVVMPEVSWQLGRSLNCTVKTYSTSYTLEDLDREFKAFAHAQWKAQVRSIYSLLMGSYNDIFDLFFSNCRSLFKDKKLVEYLKESSFDAVFLDPFDNCGLIVAKYFSLPSVVFARGILCHYLEEGAQCPAPLSYVPRILLGFSDAMTFKERVRNHIMHLEEHLLCHRFFKNALEIASEILQTPVTEYDLYSHTSIWLLRTDFVLDYPKPVMPNMIFIGGINCHQGKPLPMEFEAYINASGEHGIVVFSLGSMVSEIPEKKAMAIADALGKIPQTVLWRYTGTRPSNLANNTILVKWLPQNDLLGHPMTRAFITHAGSHGVYESICNGVPMVMMPLFGDQMDNAKRMETKGAGVTLNVLEMTSEDLENALKAVINDKSYKENIMRLSSLHKDRPVEPLDLAVFWVEFVMRHKGAPHLRPAAHDLTWYQYHSLDVIGFLLAVVLTVAFITFKCCAYGYRKCLGKKGRVKKAHKSKTH
B7: PhnA (Sinorhizobium meliloti, UniProt Q92UV8); chain MNQMSKISVTVNGRRYPWPRVPAIAVCLDGCEPAYLDAAIDAGLMPALKRIKERGAVRLAHSVIPSFTNPNNLSIATGSPPAVHGICGNYLYEPSTGEEVMMNDPKFLRAPTIFQAFYDAGARVAVVTAKDKLRALLGKGLRFDEGRAVCFSSEKSDKATRAEHGIDNASAWLGRPVPEVYSAALSEFVFAAGVKLLREFRPDIMYLTTTDYVQHKYAPGVPEANSFYEMFDRYLAELDGLGAAIVVTADHGMKPKHKADGSPDVIYVQDLLDEWLGKDAARVILPITDPYVVHHGALGSFATAYLPDGCDRSEIMARLKAIQGVDVVLGREEACRRFELPEDRIGDIVLVSSENKTLGTSEHRHDLAALDEPLRSHGGLTEQEVPFIVNRVLPELPNAPRLRNFDAFFYAVTAAAEAGAEGGL

Molecule	substrate	pH	temperature	setting	added	measurement	result
B1 (Msh2/Msh3)	Nc1ncnc2c1ncn2[C@@H]1O[C@H](COP(=O)(O)OP(=O)(O)OP(=O)(O)O)[C@@H](O)[C@H]1O	pH 7.5	30 °C	no DNA	magnesium acetate 2 mM	kcat	0.353 s⁻¹
B2 (enzyme A178R/D177A/M179S/P184R)	NC(=O)C1=CN([C@@H]2O[C@H](COP(=O)(O)OP(=O)(O)OC[C@H]3O[C@@H](n4cnc5c(N)ncnc54)[C@H](O)[C@@H]3O)[C@@H](O)[C@H]2O)C=CC1	pH 7.5	37 °C	per site	–	kcat	7.9 ± 1 s⁻¹
PTR1 (Leishmania major, UniProt Q01782)	C[C@H](O)[C@H](O)C1=Nc2c(nc(N)[nH]c2=O)NC1	pH 7.4	25 °C	apparent	–	kcat	0.57 s⁻¹
hutH (Acinetobacter baumannii, UniProt V5V8Q5)	N[C@@H](Cc1c[nH]cn1)C(=O)O	pH 7.5	–	KCl 100 mM	Zn	kcat	0.15 ± 0.01 s⁻¹
B3	Nc1ncnc2c1ncn2[C@@H]1O[C@H](COP(=O)(O)OP(=O)(O)OP(=O)(O)O)[C@@H](O)[C@H]1O	pH 7.6	–	KCl 100 mM	glutamine 10 mM, ornithine 10 mM	kcat	3.2 ± 0.2 s⁻¹
LovD A190T/A86V/C40A/C60N/D12G/G275S (Aspergillus terreus)	CCC(C)(C)C(=O)SCCC(=O)OC	–	25 °C	10% DMSO	2 mM MJA	kcat	0.031 ± 0.0015 s⁻¹
B4 (enzyme)	NC(=O)c1ccc[n+]([C@@H]2O[C@H](COP(=O)(O)OP(=O)(O)OC[C@H]3O[C@@H](n4cnc5c(N)ncnc54)[C@H](OP(=O)(O)O)[C@@H]3O)[C@@H](O)[C@H]2O)c1	pH 7.3	27 °C	cofactor varied	–	kcat	84.7 ± 2 s⁻¹
B5 (putA D779W)	O=C(O)[C@@H]1CCC=N1	pH 7.5	23 °C	–	–	kcat	0.003 ± 0.001 s⁻¹
B6 (UGT1A9)	O=c1cc(-c2ccccc2O)oc2cc(O)ccc12	pH 7.4	37 °C	–	–	Km	0.65 µM
alanine aminopeptidase (Neisseria meningitidis, UniProt Q9JYV4)	N=C(NCCC[C@H](N)C(=O)Nc1ccc2c(CC(N)=O)cc(=O)oc2c1)N[N+](=O)[O-]	pH 7.5	37 °C	–	–	kcat	7.25 ± 0.2 s⁻¹
B7 (PhnA)	O=C(O)CP(=O)(O)O	pH 7.5	30 °C	–	Zn2+ 10 µM	kcat	1.16 ± 0.03 s⁻¹

Repeated from above:
Molecule	substrate	pH	temperature	setting	added	measurement	result
alanine aminopeptidase (Neisseria meningitidis, UniProt Q9JYV4)	N=C(NCCC[C@H](N)C(=O)Nc1ccc2c(CC(N)=O)cc(=O)oc2c1)N[N+](=O)[O-]	pH 7.5	37 °C	–	–	kcat	7.25 ± 0.2 s⁻¹
